Published values gathered from unrelated publications.
Lines come from different studies, so protocols differ. Numbers after ± are the reported error. ≈ marks a conversion by molar mass, not a printed value.

SMILES = C[C@H]1COc2c(N3CCN(C)CC3)c(F)cc3c(=O)c(C(=O)N[C@@H](CCCNC(=N)N)C(=O)N[C@@H](Cc4ccc(-c5ccccc5)cc4)C(=O)N[C@@H](CCCNC(=N)N)C(=O)N[C@@H](Cc4ccc(-c5ccccc5)cc4)C(=O)N[C@@H](CCCNC(=N)N)C(N)=O)cn1c23; organism = Enterococcus faecium; system = ATCC 2316; how to read = relative to: IC50 MDCK cells over MIC; endpoint = selectivity index; result = 17.6
SMILES = COc1ccc(Br)cc1/C=N/NC(=O)Cn1ccc(=O)c2ccccc21; organism = Phytophthora capsici; test = microbial growth; setting = 50 µg/mL; endpoint = inhibition; result = 2.4%
SMILES = CC[C@H](C)[C@H](NC(=O)[C@H](CO)NC(=O)[C@H](CO)NC(=O)[C@H](Cc1ccccc1)NC(=O)CN)C(=O)N[C@@H](Cc1ccccc1)C(=O)N[C@@H](CCCNC(=N)N)C(=O)NCC(=O)N[C@H](C(=O)N[C@@H](C)C(=O)N[C@@H](CCCCN)C(N)=O)C(C)C; organism = Escherichia coli; system = ATCC 8739; setting = added: 4 µM FeCl3; endpoint = MBC; result = > 128 µM
SMILES = CC[C@@H](C)[C@@H](NC(=O)[C@@H](C)NC(=O)[C@@H](CCCCN)NC(=O)[C@@H](CC(C)C)NC(=O)[C@@H](C)NC(=O)[C@H](NC(=O)[C@@H](Cc1c[nH]cn1)NC(=O)[C@@H](CC(C)C)NC(=O)[C@H](NC(=O)[C@H](NC(=O)[C@@H](CCCCN)NC(=O)[C@@H](CCCCN)NC(=O)[C@@H](C)NC(=O)[C@@H](CO)NC(=O)[C@@H](CCCCN)NC(=O)[C@@H](Cc1ccccc1)NC(=O)[C@H](NC(=O)[C@@H](CCCCN)NC(=O)[C@@H](CC(C)C)NC(=O)[C@@H](Cc1ccccc1)NC(=O)[C@@H](CO)NC(=O)[C@@H](CCCCN)NC(=O)[C@@H](Cc1c[nH]c2ccccc12)NC(=O)[C@@H](CCCCN)NC(C)=O)[C@H](C)O)[C@H](C)O)C(C)C)[C@H](C)O)C(=O)N[C@H](CO)C(=O)N[C@H](CO)C(N)=O; organism = Scedosporium prolificans; system = clinical isolate; setting = 48 h, 30 °C; endpoint = MIC90; result = 50 µg/mL (≈ 16.7 µM)
SMILES = CON(C(=O)c1cn(C)nc1C(F)F)C(C)Cc1c(Cl)cc(Cl)cc1Cl (centres unmarked); organism = Phytophthora capsici; test = mycelial growth; setting = 1.56 µg/mL; endpoint = inhibition; result = 76.7%
SMILES = C[C@@](O)(C(F)F)[C@H](NC(=O)c1ccc(C#CC#CC2CC2)cc1)C(=O)NO; organism = Enterobacteriaceae; system = ESBL, carbapenemase positive; endpoint = MIC50; result = 0.064 µg/mL
SMILES = S=C(NCc1ccccn1)NCc1ccccn1; organism = Proteus vulgaris; test = microbial growth, well diffusion; setting = 20 µg/mL; endpoint = inhibition zone; result = 22 mm
SMILES = C[C@@H]1C[C@H](Nc2ccccc2)c2cc(F)ccc2N1C(=O)c1ccc(C#N)c(Cl)c1; organism = Aedes albopictus; setting = 1 µM, 72 h, second-instar larvae; how to read = relative to: Abbott-corrected control; endpoint = mortality; result = 70 ± 15%
SMILES = O=[N+]([O-])c1ccc([Se][C@@H]2O[C@H](CO)[C@@H](O)[C@H](O)[C@H]2O)c([N+](=O)[O-])c1; organism = Trypanosoma brucei brucei; system = bloodstream form; setting = 5 µM, 24 h, 1 % DMSO; endpoint = viability; result = 69.4 ± 5.1%
SMILES = C[C@@H]1C[C@H](Nc2ccccc2)c2cc(F)ccc2N1C(=O)c1ccc(Cl)c(F)c1; organism = Aedes albopictus; setting = 1 µM, 72 h, second-instar larvae; how to read = relative to: Abbott-corrected control; endpoint = mortality; result = 92 ± 3%
SMILES = O=C(Cn1ccc(=O)c2ccccc21)N/N=C/c1cc(Br)c(O)c(Br)c1; organism = Phytophthora capsici; test = microbial growth; setting = 50 µg/mL; endpoint = inhibition; result = 23.8%
SMILES = CO[C@H]1/C=C/O[C@@]2(C)Oc3c(C)c(O)c4c(c3C2=O)C2=NC3(CCN(CC(C)C)CC3)NC2=C(NC(=O)/C(C)=C\C=C\[C@H](C)[C@H](O)[C@@H](C)[C@@H](O)[C@@H](C)[C@H](OC(=O)c2ccc(C)cc2)[C@@H]1C)C4=O; organism = Mycobacteroides abscessus; system = ATCC 19977; how to read = relative to: wild type over arr deletion; endpoint = MIC ratio; result = 1.8
SMILES = CCCCCCCCCC(=O)OCC1OC(n2cc(C)c(=O)[nH]c2=O)CC1N(C)C (centres unmarked); organism = herpes simplex virus 2; test = viral replication; system = HEL, G; endpoint = EC50; result = > 230 nM
SMILES = N#C[C@@]1(c2ccc3c(N)ncnn23)O[C@H](CO)[C@@H](O)[C@H]1O; organism = human respiratory syncytial virus; test = viral replication; system = HEp-2, A2; endpoint = EC90; result = 2840 nM
SMILES = C=CC(C)(C)c1c(O)cc2c(c1O)C(=O)CC(c1ccccc1)O2 (centres unmarked); organism = Trypanosoma congolense; test = resazurin viability; system = diminazene-resistant clone 6C3; how to read = relative to: 6C3 over IL3000; endpoint = resistance factor; result = 0.86
SMILES = C[C@@H]1C[C@H](Nc2ccccc2)c2cc(F)ccc2N1C(=O)c1ccc(C(F)(F)F)c(F)c1; organism = Aedes albopictus; setting = 1 µM, 72 h, second-instar larvae; how to read = relative to: Abbott-corrected control; endpoint = mortality; result = 77 ± 3%
SMILES = OC[C@H]1O[C@@H](O[C@H]2[C@H](O)[C@@H](O)[C@H](SSCc3cccc4c(CSS[C@@H]5O[C@H](CO)[C@@H](O[C@@H]6O[C@H](CO)[C@H](O)[C@H](O)[C@H]6O)[C@H](O)[C@H]5O)cccc34)O[C@@H]2CO)[C@H](O)[C@@H](O)[C@H]1O; organism = Trypanosoma brucei; test = parasite growth, flow cytometry; setting = 5 µM, 24 h; endpoint = viability; result = 93.5%
SMILES = Nc1ncnc2c1c(Br)cn2[C@H]1C[C@H](O)[C@@H](CO)O1; organism = Trypanosoma congolense; test = parasite growth, resazurin; system = 6C3 diminazene-resistant; setting = 48 h plus 24 h resazurin; endpoint = EC50; result = 310 ± 70 nM
SMILES = CC[C@H](C)[C@H](NC(=O)[C@H](CCCNC(=N)N)NC(=O)[C@@H]1CCCN1C(=O)[C@@H](NC(=O)[C@H](CO)NC(=O)[C@H](CCCCN)NC(=O)[C@H](CO)NC(=O)[C@H](CC(C)C)NC(=O)[C@H](CCCCN)NC(=O)[C@H](CC(C)C)NC(=O)[C@H](Cc1ccccc1)NC(=O)[C@H](Cc1ccccc1)NC(=O)CNC(=O)[C@@H]1CCCN1C(=O)[C@@H](NC(=O)[C@H](CCC(=O)O)NC(=O)[C@@H](N)CC(=O)O)[C@@H](C)O)C(C)C)C(N)=O; organism = Aedes aegypti; system = pharate pupae; setting = injection, 10 fmol, about 12 h before ecdysis; endpoint = animals showing premature ecdysis; result = ~20%
SMILES = COc1ccc(/C=C/c2cc(O)cc(O[C@@H]3O[C@H](CO)[C@@H](O)[C@H](O)[C@H]3O)c2)cc1O; organism = Streptococcus mutans; test = microbial growth; endpoint = MIC50; result = 134 µM
SMILES = CC[C@H](C)[C@H](NC(=O)[C@H](CCCCN)NC(=O)[C@H](CCCCN)NC(=O)[C@H](CC(C)C)NC(=O)[C@H](CCCCN)NC(=O)[C@H](CCC(=O)O)NC(=O)[C@H](CCCCN)NC(=O)[C@@H](NC(=O)[C@H](CCCCN)NC(=O)[C@H](CC(N)=O)NC(=O)[C@H](CCCNC(=N)N)NC(=O)[C@H](Cc1ccccc1)NC(=O)[C@H](CCCCN)NC(=O)[C@H](CCCNC(=N)N)NC(=O)[C@H](CC(C)C)NC(=O)[C@H](CCCNC(=N)N)NC(=O)[C@H](CCCCN)NC(=O)[C@H](CCCNC(=N)N)NC(=O)[C@H](CC(C)C)NC(=O)CN)[C@@H](C)CC)C(=O)NCC(=O)N[C@@H](CCC(N)=O)C(=O)N[C@@H](CCCCN)C(=O)N[C@H](C(=O)N[C@@H](CCC(N)=O)C(=O)NCC(=O)N[C@@H](Cc1ccccc1)C(=O)N[C@H](C(=O)N1CCC[C@H]1C(=O)N[C@@H](CCCCN)C(=O)N[C@@H](CC(C)C)C(=O)N[C@@H](C)C(=O)N1CCC[C@H]1C(=O)N[C@@H](CCCNC(=N)N)C(=O)N[C@H](C(=O)N[C@@H](CC(=O)O)C(=O)N[C@@H](Cc1ccc(O)cc1)C(=O)O)[C@@H](C)O)C(C)C)[C@@H](C)CC; organism = Streptomyces scabiei; test = inhibition zone; system = CGMCC 4.176; setting = LB agar, overnight; endpoint = lethal concentration; result = 1.84 µM
SMILES = CC(=O)CCC1C(=O)NC(C(C)C)C(=O)NC(Cc2cc(O)cc(F)c2)C(=O)N2CCCC(N2)C(=O)OC(C(C)=CC=CC(=O)N2CCCCO2)CC=CC=CC(O)C(C)C1O (centres unmarked); organism = hepatitis B virus; test = viral replication, refers to: HBeAg; system = HBV stable cell line; endpoint = IC50; result = 350 nM
SMILES = COC(=O)C1=CO[C@@H](C)[C@@H]2Cn3ccc4c5ccccc5nc-4c3C[C@H]12; organism = Plasmodium falciparum; test = parasite growth, [3H]-hypoxanthine incorporation; system = C2B atovaquone-resistant; how to read = relative to: C2B over 3D7; endpoint = resistance index; result = < 1
